Measurements collected from several papers.
Parts stem from different laboratories: compare values within a part only. Substitutions count along the parent as printed.

Block 1
Target: CEP164, C-terminal peptide (human)
Technique: DHFR complementation, deep sequencing
Medium: yeast
Setting: single substitutions, model-inferred values
Reference: wild type
Direction: higher = weaker binding
Starting sequence: PDZK1, PDZ domain 2 (human); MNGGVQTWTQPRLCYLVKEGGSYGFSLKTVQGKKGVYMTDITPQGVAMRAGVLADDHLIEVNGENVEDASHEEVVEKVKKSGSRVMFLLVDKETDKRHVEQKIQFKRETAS; partner HNRVKVYRF
| Change | binding free energy change [kcal/mol] |
| --- | --- |
| L27N | 1.11 |
| E73C | 0.0989 |
| K77Q | 0.166 |
| I103E | -0.0943 |
| R84V | 0.0695 |
| Y37I | 0.47 |
| L89M | 0.983 |
| M1S | -0.0913 |

Block 2
Target: Centromere-binding protein 1, full length, His-tagged (CBF1, Saccharomyces cerevisiae, UniProt P17106, residues 1-351)
Sequence of UniProt P17106 (whole entry, looked up): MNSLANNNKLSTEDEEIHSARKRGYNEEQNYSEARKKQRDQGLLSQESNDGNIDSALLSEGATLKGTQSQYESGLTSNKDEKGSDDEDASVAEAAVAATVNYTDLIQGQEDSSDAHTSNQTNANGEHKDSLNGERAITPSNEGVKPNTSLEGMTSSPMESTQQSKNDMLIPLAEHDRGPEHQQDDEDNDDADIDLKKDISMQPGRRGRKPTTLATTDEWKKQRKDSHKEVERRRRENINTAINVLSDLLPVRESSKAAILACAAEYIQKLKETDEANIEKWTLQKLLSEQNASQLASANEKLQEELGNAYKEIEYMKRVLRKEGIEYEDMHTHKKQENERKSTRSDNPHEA
Technique: competition protein-binding microarray
Molecule type: double-stranded DNA, one strand shown
Medium: in vitro
Concentration: 2 µM
Setting: whole 60-bp probe, lowest competitor level
Together with: Pho4 competitor, 0.05 µM
Direction: higher = stronger binding
Shared flanks, not repeated: … GTCTTGATTCGCTTGACGCTGCTG
| Sequence | fluorescence intensity [a.u.] |
| --- | --- |
| CGTTGCAGGAGCCCGCCCATGGACGCATTTGAGCAA | 45.6 |
| CATACCCAACCTTGTCGTGTGGGTGAAGATATTTGT | 81.1 |
| CGAATGGAGAGCGGCCACGTTGTTAGGGGAGTAACA | 82.9 |
| TAACCTTTAAGCCGTCACAAATAAATAGCCTTGTTG | 72 |
| CTAACGAAGGTTTGAGTCGTGGGTGACAAGCCAAGT | 69.4 |
| AAATTACTAAGTTGTCACGCAACTTACCCCGTATGA | 130 |
| GACCTGGAGGAAGAACATGTGCCCTTGATTCAAGGC | 160 |
| CTAACGAAGGTTTGTATAGTGGGTGACAAGCCAAGT | 61.3 |

Further values, each from its own experiment
P1: viral docking peptide; KGVKRKLFAEDSS; partner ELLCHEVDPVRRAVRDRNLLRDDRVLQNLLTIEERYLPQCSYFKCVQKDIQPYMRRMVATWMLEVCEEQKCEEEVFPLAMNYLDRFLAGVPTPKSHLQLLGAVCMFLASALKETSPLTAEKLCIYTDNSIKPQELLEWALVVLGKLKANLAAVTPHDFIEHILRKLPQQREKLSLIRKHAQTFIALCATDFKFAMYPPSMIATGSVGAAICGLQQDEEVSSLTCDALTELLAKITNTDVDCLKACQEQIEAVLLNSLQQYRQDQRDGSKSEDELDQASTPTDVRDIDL
| Substance | target | test | system | conditions | scale | endpoint | result |
| --- | --- | --- | --- | --- | --- | --- | --- |
| P1 K4F | CCND2, cyclin fold, Cln2 fusion (human) | yeast growth competition, sequencing | yeast | weak parent motif | reference: not given, higher = stronger binding | normalised enrichment score | -0.212 |
| PhoQ, residues 284 288 289 292 302 303 ALASRC | PhoP, residues 12 14 15 18 19 GHCSL (Escherichia coli, UniProt P23836) | Sort-seq, measured: YFP reporter | E. coli | PhoQ-PhoP variant library, together with: 10 µM Mg2+ | reference: high Mg2+ state, higher = stronger signaling | fold induction | 18.2 |

Repeated from above (block 1):
| Change | binding free energy change [kcal/mol] |
| --- | --- |
| I103E | -0.0943 |
